Experimental data collected from several papers.
Protocols differ between the studies behind these lines. Several values in a cell are separate wells, animals, samples, runs or records. ± gives the spread as reported.
AMY2: Pancreatic alpha-amylase (AMY2, Sus scrofa, UniProt P00690)
UniProt P00690, sequence (whole entry, looked up): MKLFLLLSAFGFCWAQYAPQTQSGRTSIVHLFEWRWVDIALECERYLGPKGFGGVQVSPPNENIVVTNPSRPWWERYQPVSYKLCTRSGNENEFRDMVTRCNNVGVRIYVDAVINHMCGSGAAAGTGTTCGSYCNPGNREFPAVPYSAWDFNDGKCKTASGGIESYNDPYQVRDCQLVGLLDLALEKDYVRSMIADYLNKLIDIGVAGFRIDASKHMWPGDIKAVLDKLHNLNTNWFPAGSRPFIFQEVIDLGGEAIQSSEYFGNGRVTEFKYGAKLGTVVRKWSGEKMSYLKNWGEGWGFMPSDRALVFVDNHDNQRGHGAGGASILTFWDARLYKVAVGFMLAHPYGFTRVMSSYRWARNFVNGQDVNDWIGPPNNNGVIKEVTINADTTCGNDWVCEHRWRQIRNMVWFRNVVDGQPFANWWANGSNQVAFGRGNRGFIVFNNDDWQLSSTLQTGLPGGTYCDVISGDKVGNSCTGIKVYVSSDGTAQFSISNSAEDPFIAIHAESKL
UniProt Q99571, sequence (whole entry, looked up): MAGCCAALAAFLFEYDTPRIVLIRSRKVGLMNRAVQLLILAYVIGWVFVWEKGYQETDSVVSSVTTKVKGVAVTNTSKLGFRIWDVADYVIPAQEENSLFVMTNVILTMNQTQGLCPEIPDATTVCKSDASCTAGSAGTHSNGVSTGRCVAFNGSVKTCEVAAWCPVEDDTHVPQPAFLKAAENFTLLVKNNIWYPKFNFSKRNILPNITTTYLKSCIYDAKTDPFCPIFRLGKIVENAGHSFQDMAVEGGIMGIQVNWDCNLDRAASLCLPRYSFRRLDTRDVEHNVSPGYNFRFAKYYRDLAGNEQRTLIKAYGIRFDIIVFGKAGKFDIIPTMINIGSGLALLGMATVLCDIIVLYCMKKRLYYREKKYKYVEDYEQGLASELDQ
UniProt O60760, sequence (whole entry, looked up): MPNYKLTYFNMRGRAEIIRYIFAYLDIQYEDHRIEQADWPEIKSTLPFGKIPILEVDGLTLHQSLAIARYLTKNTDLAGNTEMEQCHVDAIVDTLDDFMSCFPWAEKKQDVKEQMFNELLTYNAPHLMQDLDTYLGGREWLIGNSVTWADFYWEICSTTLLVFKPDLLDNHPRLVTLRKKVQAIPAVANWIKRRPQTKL
UniProt P61073, sequence (whole entry, looked up): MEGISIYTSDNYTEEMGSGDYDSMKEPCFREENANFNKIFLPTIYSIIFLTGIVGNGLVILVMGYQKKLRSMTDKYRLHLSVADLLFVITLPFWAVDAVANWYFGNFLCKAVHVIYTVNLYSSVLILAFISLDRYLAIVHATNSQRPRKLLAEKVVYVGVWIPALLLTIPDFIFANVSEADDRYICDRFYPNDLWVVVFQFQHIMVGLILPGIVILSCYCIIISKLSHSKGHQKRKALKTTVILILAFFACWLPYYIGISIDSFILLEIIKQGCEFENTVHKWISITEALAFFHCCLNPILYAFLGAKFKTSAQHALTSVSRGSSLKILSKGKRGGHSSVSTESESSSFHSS
UniProt P41968, sequence (whole entry, looked up): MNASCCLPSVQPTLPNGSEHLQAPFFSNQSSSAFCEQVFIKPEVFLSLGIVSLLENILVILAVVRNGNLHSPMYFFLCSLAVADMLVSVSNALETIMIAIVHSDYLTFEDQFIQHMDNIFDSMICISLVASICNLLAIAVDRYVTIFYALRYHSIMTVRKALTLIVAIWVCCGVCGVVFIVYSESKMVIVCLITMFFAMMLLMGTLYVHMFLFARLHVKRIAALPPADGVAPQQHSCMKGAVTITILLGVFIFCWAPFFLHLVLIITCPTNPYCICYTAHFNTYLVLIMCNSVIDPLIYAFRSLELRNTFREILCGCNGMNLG
UniProt O15151, sequence (whole entry, looked up): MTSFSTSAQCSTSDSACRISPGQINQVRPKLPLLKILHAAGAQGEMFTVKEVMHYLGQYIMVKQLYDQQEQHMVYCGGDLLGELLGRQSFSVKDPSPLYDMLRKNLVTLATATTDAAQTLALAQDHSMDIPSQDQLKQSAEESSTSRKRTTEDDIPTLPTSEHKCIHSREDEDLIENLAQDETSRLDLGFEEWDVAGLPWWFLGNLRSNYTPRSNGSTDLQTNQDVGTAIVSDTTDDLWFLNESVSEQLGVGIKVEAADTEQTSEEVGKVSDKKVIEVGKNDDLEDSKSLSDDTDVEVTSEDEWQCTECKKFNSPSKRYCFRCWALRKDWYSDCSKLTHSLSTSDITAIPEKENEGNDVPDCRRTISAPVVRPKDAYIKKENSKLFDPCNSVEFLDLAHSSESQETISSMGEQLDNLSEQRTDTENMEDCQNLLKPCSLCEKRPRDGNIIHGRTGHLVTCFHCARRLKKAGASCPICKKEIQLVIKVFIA
UniProt Q8WTQ7, sequence (whole entry, looked up): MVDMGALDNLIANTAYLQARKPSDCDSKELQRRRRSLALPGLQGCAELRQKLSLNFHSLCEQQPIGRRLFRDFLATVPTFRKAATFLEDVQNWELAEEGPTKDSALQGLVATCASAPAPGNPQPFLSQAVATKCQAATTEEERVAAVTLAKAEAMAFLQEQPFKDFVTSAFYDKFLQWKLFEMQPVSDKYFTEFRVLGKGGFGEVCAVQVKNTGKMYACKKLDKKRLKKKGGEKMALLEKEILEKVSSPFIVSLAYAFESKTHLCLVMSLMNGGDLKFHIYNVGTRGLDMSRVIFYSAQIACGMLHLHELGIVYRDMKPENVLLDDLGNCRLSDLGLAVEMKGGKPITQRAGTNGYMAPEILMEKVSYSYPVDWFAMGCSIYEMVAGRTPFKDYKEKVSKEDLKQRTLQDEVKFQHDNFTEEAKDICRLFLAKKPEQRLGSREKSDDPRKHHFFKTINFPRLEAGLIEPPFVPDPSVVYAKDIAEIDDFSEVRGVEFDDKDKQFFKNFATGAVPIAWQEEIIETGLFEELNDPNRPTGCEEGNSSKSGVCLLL
UniProt P23975, sequence (whole entry, looked up): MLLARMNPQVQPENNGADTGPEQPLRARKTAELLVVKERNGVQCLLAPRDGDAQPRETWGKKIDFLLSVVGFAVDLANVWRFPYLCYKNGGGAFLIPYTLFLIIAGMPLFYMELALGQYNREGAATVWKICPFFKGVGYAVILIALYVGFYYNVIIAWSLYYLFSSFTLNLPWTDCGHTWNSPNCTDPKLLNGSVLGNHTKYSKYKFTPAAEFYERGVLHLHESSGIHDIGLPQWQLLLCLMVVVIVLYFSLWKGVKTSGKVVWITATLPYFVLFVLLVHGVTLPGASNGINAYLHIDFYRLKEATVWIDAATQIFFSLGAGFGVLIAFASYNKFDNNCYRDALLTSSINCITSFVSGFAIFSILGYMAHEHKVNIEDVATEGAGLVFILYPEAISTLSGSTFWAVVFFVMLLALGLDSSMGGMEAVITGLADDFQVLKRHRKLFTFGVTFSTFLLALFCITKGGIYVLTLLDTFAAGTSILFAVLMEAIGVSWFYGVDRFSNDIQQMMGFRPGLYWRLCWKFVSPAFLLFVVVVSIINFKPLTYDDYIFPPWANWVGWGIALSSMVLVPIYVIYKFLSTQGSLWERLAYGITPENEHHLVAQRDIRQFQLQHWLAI
UniProt P54132, sequence (whole entry, looked up): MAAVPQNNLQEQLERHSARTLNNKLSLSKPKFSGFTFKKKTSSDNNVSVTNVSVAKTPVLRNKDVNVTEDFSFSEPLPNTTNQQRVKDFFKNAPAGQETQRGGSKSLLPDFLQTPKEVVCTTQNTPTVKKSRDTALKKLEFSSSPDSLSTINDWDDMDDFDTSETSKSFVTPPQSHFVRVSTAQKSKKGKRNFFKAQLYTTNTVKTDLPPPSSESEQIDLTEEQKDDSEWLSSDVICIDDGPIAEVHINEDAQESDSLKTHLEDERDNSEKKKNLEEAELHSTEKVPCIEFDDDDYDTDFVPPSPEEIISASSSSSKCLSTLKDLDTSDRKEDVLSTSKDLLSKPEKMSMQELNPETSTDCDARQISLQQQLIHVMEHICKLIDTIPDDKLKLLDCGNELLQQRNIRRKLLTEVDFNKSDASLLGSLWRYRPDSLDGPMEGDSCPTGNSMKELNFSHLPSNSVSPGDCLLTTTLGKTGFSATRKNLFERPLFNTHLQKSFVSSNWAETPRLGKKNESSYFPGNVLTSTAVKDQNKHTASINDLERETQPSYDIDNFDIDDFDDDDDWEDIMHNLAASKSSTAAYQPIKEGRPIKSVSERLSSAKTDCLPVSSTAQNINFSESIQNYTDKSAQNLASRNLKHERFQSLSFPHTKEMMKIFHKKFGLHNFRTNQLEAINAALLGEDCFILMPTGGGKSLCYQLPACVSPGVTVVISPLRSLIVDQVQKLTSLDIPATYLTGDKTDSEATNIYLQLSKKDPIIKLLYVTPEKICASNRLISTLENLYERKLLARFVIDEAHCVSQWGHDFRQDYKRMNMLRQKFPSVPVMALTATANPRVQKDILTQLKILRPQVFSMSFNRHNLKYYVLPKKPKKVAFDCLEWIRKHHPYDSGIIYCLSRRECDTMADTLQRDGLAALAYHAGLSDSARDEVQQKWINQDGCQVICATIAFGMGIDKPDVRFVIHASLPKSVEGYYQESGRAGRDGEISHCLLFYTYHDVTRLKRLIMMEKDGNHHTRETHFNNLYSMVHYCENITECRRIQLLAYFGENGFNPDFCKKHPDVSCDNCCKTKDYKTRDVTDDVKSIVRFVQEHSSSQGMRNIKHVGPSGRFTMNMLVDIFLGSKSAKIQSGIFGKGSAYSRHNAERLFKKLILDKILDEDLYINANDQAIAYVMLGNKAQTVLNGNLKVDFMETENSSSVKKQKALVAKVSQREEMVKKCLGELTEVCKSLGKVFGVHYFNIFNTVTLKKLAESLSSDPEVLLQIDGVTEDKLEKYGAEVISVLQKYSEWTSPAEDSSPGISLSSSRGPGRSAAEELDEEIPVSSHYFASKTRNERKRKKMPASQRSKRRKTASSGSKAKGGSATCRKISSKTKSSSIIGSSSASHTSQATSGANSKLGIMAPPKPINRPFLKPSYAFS

Cc1ccc(N(O)/N=N/c2ccc(S(=O)(=O)Nc3nccs3)cc2)cc1  inhibition (AMY2; enzyme activity, inhibitor; 60 µg/mL): 10.5%
O=C1c2sc(-c3ccc(N4CCC(F)C4)nc3F)nc2CCN1c1cccnc1 (stereo not drawn)  inhibition (Melanocortin receptor 3 (MC3R, Homo sapiens, UniProt P41968); ligand displacement, radioligand; 1 µM): -7%
Cc1ccc(CNC(=O)[C@H](CCc2ccccc2)NC(=O)[C@H](CC(=O)NCC(C)(C)C)NC(=O)CCc2cccc(F)c2)cc1  inhibition (chymotrypsin; enzyme activity, inhibitor; 100 µM): 2%
CCOC(=O)C12CC1C(n1cnc3c(NC)nc(C#Cc4ccc(Br)s4)nc31)C(O)C2O (stereo not drawn)  inhibition (Sodium-dependent noradrenaline transporter (SLC6A2, Homo sapiens, UniProt P23975); ligand displacement, radioligand; 10 µM): 57%
COCC(=O)N1CCc2cc(-c3csc(NC(=O)c4cc(OC)cc(OC)c4)n3)ccc21  inhibition (kainate receptor, rat; radioligand binding; 10 µM): 4%
COC1CN([C@H]2CC[C@H]([C@@]3(C)Oc4c(Cl)cc(C(=O)NCc5c(SC)cc(C)[nH]c5=O)c(C)c4O3)CC2)C1  log2 fold change (RNA-seq, measured: SERINC2 mouse homolog; mouse, HT-1376 xenograft, whole blood; dose not given; relative to: vehicle): 1.73
COc1ccccc1-c1ccncc1C(=O)Nc1nnc(OCc2ccc(Cl)cc2)s1  remaining activity (RecQ-like DNA helicase BLM, residues 636–1298 (BLM, Homo sapiens, UniProt P54132); ATPase activity, ADP-Glo; 0.03 µM, 1 h): 107%
Nc1ncc(-c2cc(-c3cnn(CC(F)(F)F)c3)ncc2F)nc1C(=O)NC1CNCC(F)C1 (stereo not drawn)  remaining binding (PRKG2; KINOMEscan; 1 µM; relative to: DMSO control): 100%
CN(C)CCCCCCNc1nc(NCCCCCN(C)C)nc2ccc(NC(=O)CCl)cc12  inhibition (Histone-lysine N-methyltransferase SETDB1, triple Tudor domain (SETDB1, Homo sapiens, UniProt Q15047); 33.33 µM): 104%
C=CC(=O)Nc1cccc(Cn2ncc3cnc(Nc4cnn(CCOC)c4)nc32)c1  percent of control (TRPM6 human; binding, KINOMEscan; 100 nM; lower = stronger binding): 54%
C/C=C/C(=O)Nc1ccc2nc(NCCCCCN(C)C)nc(NCCCCCCN(C)C)c2c1  inhibition (Histone-lysine N-methyltransferase KMT5B (KMT5B, Homo sapiens, UniProt Q4FZB7); enzyme activity, inhibitor, radiometric; 10 µM): 28%
Cc1nn(-c2cccc(N)c2)c(=O)c2cnc(Nc3ccc(N4CCNCC4)cc3)nc12  IC50 (Rhodopsin kinase GRK7 (GRK7, Homo sapiens, UniProt Q8WTQ7); kinase activity, inhibitor, SelectScreen kinase profiling): 2.84 µM
CC(=O)N[C@H](C(=O)N[C@@H](CO)C(=O)N[C@@H](Cc1ccccc1)C(=O)N[C@H]1CCCCNC(=N)Nc2ccc(cc2)CCNC(=N)NCCCC[C@@H](C(=O)N2CCC[C@H]2C(N)=O)NC(=O)[C@H](CC(C)C)NC(=O)[C@H](CC(C)C)NC(=O)[C@H](C)NC(=O)[C@H](Cc2c[nH]c3ccccc23)NC(=O)[C@H](Cc2ccc(O)cc2)NC(=O)[C@H](CCC(=O)O)NC1=O)[C@@H](C)O  inhibition (Protein Mdm4 (MDM4, Homo sapiens, UniProt O15151); protein-protein interaction, inhibitor, TR-FRET; 0.1 µM): 92%
C=C1CC[C@H](OCCCNC(=O)CCOCCOCCOCCOCCOCCOCCOCCOCCOCCOCCOCCOCCOCCOCCOCCOCCOCCOCCOCCOCCOCCOCCOCCOCCOCCOCCOCCOCCOCCOCCOCCOCCOCCOCCOCCOCCNC(=O)CCN2C(=O)CC(SC[C@H](NC(=O)[C@H](Cc3ccccc3)NC(=O)[C@H](CC(N)=O)NC(=O)[C@H](Cc3c[nH]cn3)NC(=O)[C@@H](NC(=O)[C@H](CC(=O)O)NC(=O)[C@H](CCC(N)=O)NC(=O)[C@H](CC(C)C)NC(=O)[C@H](CCCCN)NC(=O)[C@H](CCCCN)NC(=O)[C@H](CCCNC(=N)N)NC(=O)[C@H](CC(C)C)NC(=O)[C@H](Cc3c[nH]c4ccccc34)NC(=O)[C@H](CCC(=O)O)NC(=O)[C@@H](NC(=O)[C@H](CCCNC(=N)N)NC(=O)[C@H](CCC(=O)O)NC(=O)[C@H](CCSC)NC(=O)[C@H](CO)NC(=O)[C@H](CC(N)=O)NC(=O)[C@H](CC(C)C)NC(=O)[C@H](Cc3c[nH]cn3)NC(=O)[C@H](CCCCN)NC(=O)CNC(=O)[C@H](CC(C)C)NC(=O)[C@H](CC(N)=O)NC(=O)[C@H](Cc3c[nH]cn3)NC(=O)[C@H](CCSC)NC(=O)[C@H](CC(C)C)NC(=O)[C@H](CCC(N)=O)NC(=O)[C@@H](NC(=O)[C@H](CCC(=O)O)NC(=O)[C@H](CO)NC(=O)[C@@H](NC(=O)[C@@H](N)CO)C(C)C)[C@@H](C)CC)C(C)C)C(C)C)C(=O)O)C2=O)C/C1=C/C=C1\CCC[C@]2(C)[C@@H]([C@H](C)CCCC(C)(C)O)CC[C@@H]12 (stereo partly drawn)  half-life (male cynomolgus monkey, plasma; intravenous, 0.02 mg/kg, single dose): 32.3 h
CC(C)NC(=O)[C@H](CCc1ccccc1)NC(=O)[C@H](CC(=O)NCC(C)(C)C)NC(=O)CCc1ccccc1  inhibition (chymotrypsin; enzyme activity, inhibitor; 100 µM): -10%
Cc1ncsc1-c1ccc(C(C)NC(=O)C2CC(O)CN2C(=O)C(NC(=O)CCCCCCCCCCN2CCCC(Nc3ncc(Cl)c(Nc4ccccc4S(=O)(=O)C(C)C)n3)C2)C(C)(C)C)cc1 (stereo not drawn)  log2 fold change (22Rv1; RNA-seq, measured: ZNF446 mRNA; concentration not given; relative to: DMSO): -1.47
O=c1cc(-c2ccccc2)oc2c(Br)c(O)c(O)c(O)c12  inhibition (AMY2; enzyme activity, inhibitor; 50 µM, 30 min): 0%
CCN(CC)CC#CCNc1ccnc2cc(Cl)ccc12  revertants per well (Salmonella typhimurium; mini-Ames test; TA1535; 62.5 µg/well, with rat liver S9): 3
CCCCCCCCCCCCNC(=S)NCCCC[C@H](NC(=O)OCc1ccccc1)C(=O)N[C@@H](CCC(=O)O)C(=O)N[C@@H](CCCNC(=N)N)C(N)=O  inhibition (NAD-dependent protein deacetylase sirtuin-1 (SIRT1, Homo sapiens, UniProt Q96EB6); enzyme activity, inhibitor; 1 µM): 56%
CN(Cc1ccc(/C=C/C(=O)NO)cc1)CC12CC3CC(CC(C3)C1)C2  inhibition (human beta1 adrenoceptor; agonist radioligand binding; 0.05 µM): -11%
C=CC(=O)Nc1cccc(-c2cnc3[nH]cc(C(=O)NC(C)(C)C)c3n2)c1  inhibition (NDRG1; 0.1 µM): 3% and 4%
COc1cc2c(cc1OC)[C@@H]1Cc3ccc(OC)c(OC)c3CN1CC2  inhibition (Hematopoietic prostaglandin D synthase (HPGDS, Homo sapiens, UniProt O60760); enzyme activity, inhibitor, fluorescence polarisation; 100 µM): 42.8%
CC(=O)C12NC(C)(C)CC1(C)C(=O)C1=C2c2c(c3c4n2C(C)(C)CC2=C4C4(CC(C)(C)NC(C)(C4)C2=O)CC3(C)C)C(=O)C(C)(C)N1 (single isomer, unassigned; (-))  inhibition (P2X purinoceptor 4 (P2RX4, Homo sapiens, UniProt Q99571); ion current, antagonist, whole-cell patch clamp; HEK293T; 10 µM): 7.7 ± 0.02%
O=C(NC1CCC1)[C@H](Cc1c[nH]c2ccccc12)NC(=O)[C@H](CCCCNC(=S)Nc1ccc(F)c(O)c1F)NS(=O)(=O)c1cccc(F)c1  inhibition (NAD-dependent protein deacetylase sirtuin-3, mitochondrial (SIRT3, Homo sapiens, UniProt Q9NTG7); enzyme activity, inhibitor; 30 µM): 78%
C[Si](C)(C)C[C@@H](CN)CC(=O)O  inhibition (SK potassium channel, rat; binding, radioligand binding; 75 µM, with: iodinated apamin): 2%
C=C(NC(=O)c1csc(-c2nc3c(cc2O)-c2nc(cs2)C(=O)NC(C(C)O)C(=O)NC(=C(C)OC)c2nc(cs2)C(=O)NC2c4nc(cs4)C(=O)NC(COC(=O)c4c5c6c(cccc6n4O)COC(=O)C(OC4CC(C)(O)C(N(C)C)C(C)O4)C2OC5)c2nc-3cs2)n1)C(N)=O (stereo not drawn)  half-life (male cynomolgus monkey, plasma; intravenous, 9 mg/kg, single dose, infusion): 5.59 h
S=C(NCC1(N2CCCCC2)CCCCC1)NC1CC2CCC1C2 (stereo not drawn)  inhibition (C-X-C chemokine receptor type 4 (CXCR4, Homo sapiens, UniProt P61073); arrestin recruitment, DiscoverX arrestin; 30 µM): 74%

Repeated from above:
C=C(NC(=O)c1csc(-c2nc3c(cc2O)-c2nc(cs2)C(=O)NC(C(C)O)C(=O)NC(=C(C)OC)c2nc(cs2)C(=O)NC2c4nc(cs4)C(=O)NC(COC(=O)c4c5c6c(cccc6n4O)COC(=O)C(OC4CC(C)(O)C(N(C)C)C(C)O4)C2OC5)c2nc-3cs2)n1)C(N)=O (stereo not drawn)  half-life (male cynomolgus monkey, plasma; intravenous, 9 mg/kg, single dose, infusion): 5.59 h
C=CC(=O)Nc1cccc(-c2cnc3[nH]cc(C(=O)NC(C)(C)C)c3n2)c1  inhibition (NDRG1; 0.1 µM): 3% and 4%
C[Si](C)(C)C[C@@H](CN)CC(=O)O  inhibition (SK potassium channel, rat; binding, radioligand binding; 75 µM, with: iodinated apamin): 2%
